Results of several laboratories.

SMILES	assay	system	conditions	measurement	value
C[C@H](N)C(=O)OCCOCn1cnc2c(=O)[nH]c(N)nc21	–	rabbit corneal homogenate	0.133 mM, pH 7.4	time to complete hydrolysis	< 5 min
CC[C@H](C)[C@@H]1NC(=O)[C@H](Cc2ccc(O)cc2)NC(=O)[C@@H](N)Cn2cc(nn2)CCCC[C@@H](C(=O)N2CCC[C@H]2C(=O)N[C@@H](CC(C)C)C(=O)NCC(N)=O)NC(=O)[C@H](CC(N)=O)NC(=O)[C@H](CCC(N)=O)NC1=O	RP-HPLC	human pregnancy serum	37 °C	time to disappearance	10 days
C[C@]12CC[C@H](OC(=O)NC3CCNCC3)C[C@H]1CC[C@@H]1[C@@H]2CC[C@]2(C)[C@@H](c3ccc(=O)oc3)CC[C@]12O	–	male pigmented guinea pigs	intraperitoneal, 9 mg/kg	time to death	< 1 h
CCc1noc(CC)c1C(=O)O[C@H]1C(C)=C[C@]23C(=O)[C@@H](C=C(CO)[C@@H](O)[C@]12O)[C@H]1[C@@H](C[C@H]3C)C1(C)C	–	female IAF hairless guinea pigs	topical, 0.015% and 0.05% gel, single application	time to peak skin reaction	24 h
CC[C@H](C)[C@@H]1NC(=O)[C@H](CC(N)=O)NC(=O)[C@@H]2CCCN2C(=O)[C@@H](NC(=O)[C@H](CC(N)=O)NC(=O)[C@@H](N)CCC(N)=O)COC(=O)[C@H](CCSC)NC(=O)[C@H](Cc2c[nH]c3ccccc23)NC(=O)[C@H](CCC(N)=O)NC(=O)CNC(=O)[C@H](Cc2ccccc2)NC1=O	–	human plasma	37 °C	time to complete degradation	1 h
COC1CC(OC2CCC3(C)C(CCC45OC46CCC(C(C)=O)C6(C)C(OC(C)=O)C(OC(=O)c4ccccc4)C35)C2)OC(C)C1OC1OC(C)C(OC2OC(CO)C(O)C(O)C2O)C(OC)C1O (stereo not shown)	–	pooled human faecal microbiota	50 µM, 37 °C, anaerobic	time to complete conversion	≤ 8 h
CC[C@H](C)[C@H](NC(=O)CNC(=O)[C@H](C)NC(=O)[C@@H](NC(=O)CNC(=O)[C@H](CCCNC(=N)N)NC(=O)[C@@H](NC(=O)[C@H](CCCNC(=N)N)NC(=O)[C@H](CCC(=O)O)NC(=O)CNC(=O)[C@H](CCCNC(=N)N)NC(=O)[C@H](CCCCN)NC(=O)[C@H](C)NC(=O)[C@H](Cc1c[nH]cn1)NC(=O)CNC(=O)[C@H](CCCCN)NC(=O)[C@H](CCCNC(=N)N)NC(=O)[C@H](C)NC(=O)[C@H](Cc1ccc(O)cc1)NC(=O)[C@H](C)NC(=O)[C@H](CC(C)C)NC(=O)[C@H](CC(C)C)NC(=O)CN)C(C)C)[C@@H](C)O)C(=O)N[C@@H](CCCNC(=N)N)C(=O)N[C@@H](Cc1ccccc1)C(=O)N[C@@H](CC(C)C)C(=O)N[C@@H](Cc1ccc(O)cc1)C(=O)N[C@@H](C)C(=O)N[C@@H](C)C(=O)N1CCC[C@H]1C(=O)N[C@@H](CCCNC(=N)N)C(=O)N[C@@H](CCCNC(=N)N)C(=O)O	–	100% human serum	27 µM, 37 °C, heat-inactivated serum	time to complete proteolysis	10 to 30 min
CSCC[C@@H]1NC(=O)[C@H](CCC(=O)O)NC(=O)[C@H](CC(C)C)NC(=O)[C@H](CC(C)C)NC(=O)[C@H](CCCCN)NC(=O)[C@H](CC(=O)O)NC(=O)[C@H](CC(=O)O)NC(=O)[C@H](CC(N)=O)NC(=O)[C@H](CC(=O)O)NC(=O)[C@@H]2CSSC[C@@H]3NC(=O)[C@H]([C@@H](C)O)NC(=O)[C@H](C(C)C)NC(=O)[C@@H]4CCCN4C(=O)[C@H](CSSC[C@H](NC(=O)[C@H](CC(=O)O)NC(=O)[C@H](Cc4ccccc4)NC(=O)[C@H](CC(N)=O)NC(=O)[C@H](CCCCN)NC(=O)[C@H](CCC(=O)O)NC(=O)[C@H](CC(=O)O)NC(=O)[C@H](C)NC(=O)[C@@H](NC(=O)[C@H](Cc4c[nH]cn4)NC(=O)[C@@H](N)CCC(=O)O)CSSC[C@@H](C(N)=O)NC(=O)[C@H](Cc4ccccc4)NC(=O)CNC3=O)C(=O)N[C@@H](CCCNC(=N)N)C(=O)N[C@@H](CCCNC(=N)N)C(=O)N[C@@H](CO)C(=O)N[C@@H](CC(C)C)C(=O)N[C@@H](CCCNC(=N)N)C(=O)N[C@@H](CC(N)=O)C(=O)NCC(=O)N[C@@H](CC(=O)O)C(=O)N2)NC(=O)[C@H](Cc2ccc(O)cc2)NC(=O)[C@H](Cc2ccc(O)cc2)NC(=O)CNC1=O	–	porcine simulated intestinal fluid	–	time to complete degradation	24 h
O=C(Cc1ccc2ccccc2c1)N[C@H](Cc1ccccc1)C(=O)N[C@H](Cc1ccc(OP(=O)(O)O)cc1)C(=O)N[C@H](Cc1ccccc1)C(=O)N[C@H](Cc1ccc(OP(=O)(O)O)cc1)C(=O)O	substrate	SAOS-2 cell lysate	500 µM, pH 7.4, 37 °C	time to 50% dephosphorylation	≤ 120 min
CSCC[C@H](NC(=O)[C@H](CO)NC(=O)[C@H](CCC(N)=O)NC(=O)[C@H](CCC(=O)O)NC(=O)[C@H](CCC(=O)O)NC(=O)CNC(=O)[C@H](CSSC[C@H](NC(=O)[C@H](CCCNC(=N)N)NC(=O)[C@@H]1CCCN1C(=O)[C@H](Cc1c[nH]cn1)NC(=O)[C@H](Cc1c[nH]c2ccccc12)NC(=O)[C@H](CCCCN)NC(=O)[C@H](Cc1ccccc1)NC(=O)[C@H](CC(C)C)NC(=O)CN)C(=O)NCC(=O)N[C@@H](CCC(=O)O)C(=O)N[C@@H](CCC(=O)O)C(=O)N[C@@H](CCC(N)=O)C(=O)N[C@@H](CO)C(=O)N[C@@H](CCSC)C(=O)N[C@@H](Cc1c[nH]c2ccccc12)C(=O)N[C@H](C(=O)O)[C@@H](C)O)NC(=O)[C@H](CCCNC(=N)N)NC(=O)[C@@H]1CCCN1C(=O)[C@H](Cc1c[nH]cn1)NC(=O)[C@H](Cc1c[nH]c2ccccc12)NC(=O)[C@H](CCCCN)NC(=O)[C@H](Cc1ccccc1)NC(=O)[C@H](CC(C)C)NC(=O)CN)C(=O)N[C@@H](Cc1c[nH]c2ccccc12)C(=O)N[C@H](C(=O)O)[C@@H](C)O	–	plasma	37 °C	time to complete degradation	10 h
CCC(C)C(=O)OC1C2C3(C)CCC(OC4CC(OC)C(OC5OC(C)C(OC6OC(CO)C(O)C(O)C6O)C(OC)C5O)C(C)O4)CC3CCC23OC32CCC(C(C)=O)C2(C)C1OC(C)=O (stereo not shown)	–	pooled human faecal microbiota	50 µM, 37 °C, anaerobic	time to complete conversion	≤ 8 h
CC[C@H](C)[C@@H]1NC(=O)[C@H](CCCNC(=N)N)NC(=O)[C@H](CC(=O)O)NC(=O)[C@H](CCSC)NC(=O)[C@H](CCCCN)NC(=O)[C@H](CCCNC(=N)N)NC(=O)CNC(=O)[C@H](Cc2ccccc2)NC(=O)[C@@H](NC(=O)CNC(=O)[C@H](CO)NC(=O)CNC(=O)[C@H](CCC(N)=O)NC(=O)[C@@H](NC(=O)[C@H](CCSC)NC(=O)[C@H](CCCCN)NC(=O)[C@@H]2CCCN2C(=O)[C@@H](N)CO)C(C)C)CSSC[C@@H](C(=O)N[C@@H](CCCCN)C(=O)N[C@H](C(=O)N[C@@H](CC(C)C)C(=O)N[C@@H](CCCN=C(N)N)C(=O)N[C@@H](CCCN=C(N)N)C(=O)N[C@@H](Cc2cnc[nH]2)C(=O)O)C(C)C)NC(=O)CNC(=O)[C@H](CC(C)C)NC(=O)CNC(=O)[C@H](CO)NC(=O)[C@H](CO)NC(=O)[C@H](CO)NC(=O)[C@H](CO)NC1=O	–	human kidney membranes	1 µM, pH 7.5, 37 °C	time to inactivation	~20 min
CC[C@H](C)[C@H](NC(=O)[C@H](CC(C)C)NC(=O)[C@@H]1CCCN1C(=O)[C@H](CO)NC(=O)[C@@H](N)CC(C)C)C(=O)N[C@@H](Cc1ccccc1)C(=O)N[C@H](C(=O)N[C@H](C(=O)N[C@H](C(=O)N1CCC[C@H]1C(=O)N[C@@H](CC(=O)O)C(=O)N[C@H](C(=O)O)[C@@H](C)O)[C@@H](C)O)[C@@H](C)O)C(C)C	RP-HPLC	10% mouse serum	0.2 mM, 37 °C	time to complete degradation	≤ 24 h
